Measured values collected from several papers.
Lines come from different studies, so protocols differ. ± marks the error that the study gave.

Protein sequences, listed by entry. Tags and fused reporters are not part of them. Residues count along the entry.
UniProt P41145, whole entry: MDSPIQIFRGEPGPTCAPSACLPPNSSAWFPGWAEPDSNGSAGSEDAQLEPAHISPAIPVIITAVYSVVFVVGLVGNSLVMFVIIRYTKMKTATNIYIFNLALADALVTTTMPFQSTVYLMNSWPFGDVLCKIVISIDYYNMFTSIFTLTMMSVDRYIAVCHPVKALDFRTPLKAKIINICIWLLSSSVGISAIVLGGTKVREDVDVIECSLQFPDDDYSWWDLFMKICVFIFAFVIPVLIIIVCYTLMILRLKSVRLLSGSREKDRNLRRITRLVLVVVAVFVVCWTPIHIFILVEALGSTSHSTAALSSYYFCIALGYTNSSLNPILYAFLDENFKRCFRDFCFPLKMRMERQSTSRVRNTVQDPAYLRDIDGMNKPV
UniProt P22303, 32-614 limits assumed: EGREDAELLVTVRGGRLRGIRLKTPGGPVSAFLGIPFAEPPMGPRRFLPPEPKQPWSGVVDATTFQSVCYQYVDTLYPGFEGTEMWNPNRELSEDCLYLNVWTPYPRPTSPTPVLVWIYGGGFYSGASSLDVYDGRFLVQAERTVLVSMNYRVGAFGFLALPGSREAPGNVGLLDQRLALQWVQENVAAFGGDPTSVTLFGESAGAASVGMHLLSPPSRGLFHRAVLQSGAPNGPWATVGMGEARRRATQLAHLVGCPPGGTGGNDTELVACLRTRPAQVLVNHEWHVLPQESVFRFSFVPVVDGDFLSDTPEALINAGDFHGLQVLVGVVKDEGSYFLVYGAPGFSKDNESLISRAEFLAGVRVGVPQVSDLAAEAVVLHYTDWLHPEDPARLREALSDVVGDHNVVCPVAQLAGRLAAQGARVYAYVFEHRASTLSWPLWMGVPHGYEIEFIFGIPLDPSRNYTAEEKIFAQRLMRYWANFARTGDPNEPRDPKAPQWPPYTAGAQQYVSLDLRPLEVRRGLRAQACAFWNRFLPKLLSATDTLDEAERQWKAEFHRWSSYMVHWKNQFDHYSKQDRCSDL
UniProt P22303, whole entry, looked up: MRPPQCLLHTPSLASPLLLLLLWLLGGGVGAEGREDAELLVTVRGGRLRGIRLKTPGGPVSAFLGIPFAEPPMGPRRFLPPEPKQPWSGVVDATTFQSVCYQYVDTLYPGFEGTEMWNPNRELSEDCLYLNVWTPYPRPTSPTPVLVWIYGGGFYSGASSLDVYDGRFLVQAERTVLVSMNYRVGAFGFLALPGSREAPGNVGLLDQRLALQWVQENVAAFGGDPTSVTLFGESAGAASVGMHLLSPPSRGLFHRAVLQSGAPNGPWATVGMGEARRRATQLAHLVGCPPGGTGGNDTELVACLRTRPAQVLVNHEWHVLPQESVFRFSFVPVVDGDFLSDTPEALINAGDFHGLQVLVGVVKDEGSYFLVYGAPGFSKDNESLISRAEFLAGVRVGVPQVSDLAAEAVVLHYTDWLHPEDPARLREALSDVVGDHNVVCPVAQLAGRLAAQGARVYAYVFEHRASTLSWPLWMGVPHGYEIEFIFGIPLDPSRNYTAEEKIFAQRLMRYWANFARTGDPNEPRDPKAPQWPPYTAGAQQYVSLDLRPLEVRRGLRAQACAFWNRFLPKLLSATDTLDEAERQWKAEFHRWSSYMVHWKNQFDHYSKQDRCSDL
UniProt Q9GZZ6, 25-450 limits assumed: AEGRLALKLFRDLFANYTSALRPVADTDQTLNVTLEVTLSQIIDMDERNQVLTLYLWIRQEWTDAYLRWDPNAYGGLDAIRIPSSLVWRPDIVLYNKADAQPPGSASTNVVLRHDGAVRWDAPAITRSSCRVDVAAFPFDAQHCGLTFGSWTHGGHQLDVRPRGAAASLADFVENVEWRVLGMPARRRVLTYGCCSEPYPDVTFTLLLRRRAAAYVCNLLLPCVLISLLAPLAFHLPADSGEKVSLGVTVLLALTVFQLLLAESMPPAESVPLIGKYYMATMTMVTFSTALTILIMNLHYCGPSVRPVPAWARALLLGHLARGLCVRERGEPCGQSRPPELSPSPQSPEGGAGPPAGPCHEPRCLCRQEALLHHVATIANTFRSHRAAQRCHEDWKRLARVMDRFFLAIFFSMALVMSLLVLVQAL
UniProt Q9UGM1, 26-479 limits assumed: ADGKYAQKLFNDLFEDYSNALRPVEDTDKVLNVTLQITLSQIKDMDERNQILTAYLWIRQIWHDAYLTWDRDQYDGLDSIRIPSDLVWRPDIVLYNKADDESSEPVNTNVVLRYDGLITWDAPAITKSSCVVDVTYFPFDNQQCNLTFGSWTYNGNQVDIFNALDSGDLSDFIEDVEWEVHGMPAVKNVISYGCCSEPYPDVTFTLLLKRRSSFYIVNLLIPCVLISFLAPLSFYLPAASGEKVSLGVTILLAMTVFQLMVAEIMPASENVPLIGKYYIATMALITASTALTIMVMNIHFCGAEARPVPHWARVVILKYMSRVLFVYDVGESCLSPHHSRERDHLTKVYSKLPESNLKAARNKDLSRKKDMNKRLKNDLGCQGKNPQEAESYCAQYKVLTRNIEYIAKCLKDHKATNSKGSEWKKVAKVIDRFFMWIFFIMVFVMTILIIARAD
UniProt Q03311, whole entry, looked up: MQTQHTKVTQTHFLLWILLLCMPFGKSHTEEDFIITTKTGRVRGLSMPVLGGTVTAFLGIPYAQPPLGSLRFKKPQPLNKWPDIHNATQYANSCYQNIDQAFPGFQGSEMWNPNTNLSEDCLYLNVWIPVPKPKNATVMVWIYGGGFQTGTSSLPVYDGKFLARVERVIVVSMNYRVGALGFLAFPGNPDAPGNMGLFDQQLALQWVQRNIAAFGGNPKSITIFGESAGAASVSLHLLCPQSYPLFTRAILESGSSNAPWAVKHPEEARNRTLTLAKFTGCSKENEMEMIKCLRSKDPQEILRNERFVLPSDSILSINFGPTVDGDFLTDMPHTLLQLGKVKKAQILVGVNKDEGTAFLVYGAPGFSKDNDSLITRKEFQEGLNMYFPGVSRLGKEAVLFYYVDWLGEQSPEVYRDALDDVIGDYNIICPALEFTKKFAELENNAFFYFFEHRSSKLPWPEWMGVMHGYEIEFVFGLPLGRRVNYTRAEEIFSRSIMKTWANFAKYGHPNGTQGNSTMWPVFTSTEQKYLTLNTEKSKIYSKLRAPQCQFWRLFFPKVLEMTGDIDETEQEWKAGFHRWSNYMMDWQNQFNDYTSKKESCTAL
UniProt Q869C3, whole entry, looked up: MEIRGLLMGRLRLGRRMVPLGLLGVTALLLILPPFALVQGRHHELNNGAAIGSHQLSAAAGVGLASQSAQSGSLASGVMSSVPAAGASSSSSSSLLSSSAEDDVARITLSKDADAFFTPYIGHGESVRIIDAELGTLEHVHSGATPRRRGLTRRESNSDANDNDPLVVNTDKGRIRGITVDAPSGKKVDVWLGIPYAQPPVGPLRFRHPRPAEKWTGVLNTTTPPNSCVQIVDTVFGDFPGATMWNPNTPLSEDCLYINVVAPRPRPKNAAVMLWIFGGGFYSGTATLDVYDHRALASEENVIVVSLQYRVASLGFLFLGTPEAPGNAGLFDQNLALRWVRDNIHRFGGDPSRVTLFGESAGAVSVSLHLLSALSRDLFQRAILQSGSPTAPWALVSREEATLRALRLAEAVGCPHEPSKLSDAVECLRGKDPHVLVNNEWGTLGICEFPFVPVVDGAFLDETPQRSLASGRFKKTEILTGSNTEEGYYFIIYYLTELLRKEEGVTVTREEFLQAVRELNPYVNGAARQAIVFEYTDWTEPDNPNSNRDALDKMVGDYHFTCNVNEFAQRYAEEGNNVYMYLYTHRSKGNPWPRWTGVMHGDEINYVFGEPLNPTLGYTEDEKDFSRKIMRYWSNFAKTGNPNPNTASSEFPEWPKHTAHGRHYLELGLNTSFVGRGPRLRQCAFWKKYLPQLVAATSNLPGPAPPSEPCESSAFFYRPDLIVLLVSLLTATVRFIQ
UniProt P04775, whole entry: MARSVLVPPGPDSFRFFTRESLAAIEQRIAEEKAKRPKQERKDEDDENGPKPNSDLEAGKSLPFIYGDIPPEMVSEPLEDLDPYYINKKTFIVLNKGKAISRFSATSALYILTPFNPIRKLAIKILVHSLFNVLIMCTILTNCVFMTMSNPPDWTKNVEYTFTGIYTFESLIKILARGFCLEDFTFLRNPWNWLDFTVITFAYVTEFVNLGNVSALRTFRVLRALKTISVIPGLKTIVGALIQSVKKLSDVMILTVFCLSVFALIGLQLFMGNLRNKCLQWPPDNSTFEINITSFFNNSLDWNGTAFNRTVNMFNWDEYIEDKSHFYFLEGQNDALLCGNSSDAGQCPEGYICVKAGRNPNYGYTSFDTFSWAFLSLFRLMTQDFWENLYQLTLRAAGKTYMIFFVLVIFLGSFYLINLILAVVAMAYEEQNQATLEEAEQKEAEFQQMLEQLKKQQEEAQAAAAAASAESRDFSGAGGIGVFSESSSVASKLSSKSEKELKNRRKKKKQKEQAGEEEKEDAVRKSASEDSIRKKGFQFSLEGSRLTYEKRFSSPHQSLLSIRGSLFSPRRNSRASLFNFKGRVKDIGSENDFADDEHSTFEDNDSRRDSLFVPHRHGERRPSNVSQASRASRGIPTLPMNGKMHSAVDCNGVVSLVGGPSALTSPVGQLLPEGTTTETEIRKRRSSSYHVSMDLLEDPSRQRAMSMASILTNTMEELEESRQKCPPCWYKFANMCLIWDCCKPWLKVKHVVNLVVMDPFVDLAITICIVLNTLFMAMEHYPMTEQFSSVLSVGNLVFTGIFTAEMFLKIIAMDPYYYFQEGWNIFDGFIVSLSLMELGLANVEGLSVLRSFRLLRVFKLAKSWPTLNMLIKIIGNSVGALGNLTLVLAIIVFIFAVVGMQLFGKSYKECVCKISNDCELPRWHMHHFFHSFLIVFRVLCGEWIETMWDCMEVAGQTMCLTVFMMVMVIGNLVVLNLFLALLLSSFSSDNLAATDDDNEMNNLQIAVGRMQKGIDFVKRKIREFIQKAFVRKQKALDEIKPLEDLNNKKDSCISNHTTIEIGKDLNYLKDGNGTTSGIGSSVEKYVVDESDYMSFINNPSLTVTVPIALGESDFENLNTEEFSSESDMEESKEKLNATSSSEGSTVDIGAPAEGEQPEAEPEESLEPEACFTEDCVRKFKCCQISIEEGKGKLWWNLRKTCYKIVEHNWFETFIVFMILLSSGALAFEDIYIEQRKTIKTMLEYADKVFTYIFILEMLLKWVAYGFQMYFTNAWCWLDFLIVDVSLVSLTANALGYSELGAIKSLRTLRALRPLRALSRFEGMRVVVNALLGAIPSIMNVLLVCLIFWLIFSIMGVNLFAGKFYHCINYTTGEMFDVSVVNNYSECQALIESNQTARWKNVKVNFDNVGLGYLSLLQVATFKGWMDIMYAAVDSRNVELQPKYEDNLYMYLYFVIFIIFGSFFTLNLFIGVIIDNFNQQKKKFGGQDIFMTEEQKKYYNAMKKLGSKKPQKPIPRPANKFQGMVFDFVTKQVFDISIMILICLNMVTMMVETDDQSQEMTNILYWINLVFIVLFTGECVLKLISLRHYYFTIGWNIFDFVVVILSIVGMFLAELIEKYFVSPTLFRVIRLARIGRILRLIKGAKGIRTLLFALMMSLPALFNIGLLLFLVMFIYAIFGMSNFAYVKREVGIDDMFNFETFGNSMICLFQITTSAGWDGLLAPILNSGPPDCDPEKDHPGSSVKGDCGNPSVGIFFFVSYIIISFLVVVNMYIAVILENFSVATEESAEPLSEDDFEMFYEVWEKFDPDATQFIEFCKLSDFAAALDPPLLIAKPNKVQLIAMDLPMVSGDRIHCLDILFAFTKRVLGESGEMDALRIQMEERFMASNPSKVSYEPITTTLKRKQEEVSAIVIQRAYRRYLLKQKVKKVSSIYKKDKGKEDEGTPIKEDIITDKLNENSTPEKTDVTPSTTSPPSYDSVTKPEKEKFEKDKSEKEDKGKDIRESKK
UniProt P21836, whole entry, looked up: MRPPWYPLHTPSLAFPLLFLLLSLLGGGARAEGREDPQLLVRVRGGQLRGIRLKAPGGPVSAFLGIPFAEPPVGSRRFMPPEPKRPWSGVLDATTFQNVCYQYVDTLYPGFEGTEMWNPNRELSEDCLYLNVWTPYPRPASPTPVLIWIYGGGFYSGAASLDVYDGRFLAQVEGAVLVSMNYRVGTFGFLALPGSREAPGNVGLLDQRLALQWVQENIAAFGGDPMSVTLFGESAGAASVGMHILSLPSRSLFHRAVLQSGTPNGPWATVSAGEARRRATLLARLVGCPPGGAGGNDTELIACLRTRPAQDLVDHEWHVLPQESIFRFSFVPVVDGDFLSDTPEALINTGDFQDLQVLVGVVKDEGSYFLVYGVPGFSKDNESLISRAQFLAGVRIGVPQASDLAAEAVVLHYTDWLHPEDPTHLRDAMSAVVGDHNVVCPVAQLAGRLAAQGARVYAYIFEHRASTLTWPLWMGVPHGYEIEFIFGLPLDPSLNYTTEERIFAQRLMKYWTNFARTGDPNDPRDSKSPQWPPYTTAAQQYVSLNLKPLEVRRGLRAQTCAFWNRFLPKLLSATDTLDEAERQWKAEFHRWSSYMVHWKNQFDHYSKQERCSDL

Molecule | tested on | assay | system | conditions | how to read | quantity | value
Nc1ncnc2c1ncn2[C@@H]1O[C@H](COP(=O)(O)OP(=O)(O)OP(=O)(O)O)[C@@H](O)[C@H]1O | Genome polyprotein, RNA polymerase 3D (Human poliovirus 1 Mahoney, UniProt P03300, K2107H) | pH dependence of kpol | – | – | – | pKa | 6.9 ± 0.3
Cc1cc2c(-c3ccco3)cnc(N[C@H]3CCN(C)C[C@@H]3C(=O)NC3CCCCC3)c2[nH]c1=O | OPRK1 (Homo sapiens, UniProt P41145) | binding, radioligand binding | – | 10 µM | – | inhibition | 34.9%
CCN(CC)Cc1cc(N)ccc1O | Acetylcholinesterase, paraoxon-inhibited (ACHE, Homo sapiens, UniProt P22303) | reactivation of inhibited enzyme, reactivator | – | with: 1-inhibited enzyme | – | Hill coefficient | 2.8 ± 0.23
CC1(C)S[C@@H]2[C@H](I)C(=O)N2[C@H]1C(=O)O | D-alanyl-D-alanine carboxypeptidase (Actinomadura sp. R39, UniProt P39045) | covalent inhibitor, reporter substrate hydrolysis | – | pH 7.2, 30 °C, 100 mM D-alanine, with: thioester substrate 100 µM | – | k2/K | 52300 ± 6400 M⁻¹ s⁻¹
C[C@@H]1NC(=O)[C@H](CCCNC(=N)N)NC(=O)[C@H](CCCNC(=N)N)NC(=O)[C@H](CCCNC(=N)N)NC(=O)[C@H](CO)NC(=O)[C@@H]2CSSC[C@H](NC(=O)CN)C(=O)N[C@@H](CSSC[C@@H](C(N)=O)NC(=O)[C@H](CO)NC(=O)[C@H](CCCNC(=N)N)NC1=O)C(=O)N[C@@H](CO)C(=O)N[C@@H](Cc1c[nH]cn1)C(=O)N1CCC[C@H]1C(=O)N[C@@H](C)C(=O)N2 | Neuronal acetylcholine receptor; alpha9/alpha10 (Homo sapiens, UniProt Q9GZZ6+Q9UGM1) | ion current, antagonist | Xenopus oocytes | 10 µM, 5 min, with: acetylcholine | reference: control | remaining response | 1 ± 0.9%
CC(C)OP(=S)(OC(C)C)SCCNS(=O)(=O)c1ccccc1 | ACHE (Homo sapiens, UniProt P22303) | enzyme activity, inhibitor, colorimetric | – | human liver microsomes with NADPH | – | IC50 | inactive
CCOP(=O)(OCC)Oc1ccc([N+](=O)[O-])cc1 | Cholinesterase (Bche, Mus musculus, UniProt Q03311) | – | ES1+/+ mice, plasma | subcutaneous, 0.2 mg/kg, 0.5 h, toxicant challenge | – | inhibition | 70.5 ± 1.8%
CCOP(=O)(OCC)Oc1ccc([N+](=O)[O-])cc1 | Ace (Anopheles gambiae, UniProt Q869C3) | enzyme inhibition, inhibitor | – | – | – | k2 | 0.79 ± 0.07 min⁻¹
CCOC(=O)/C=C/[C@H](C[C@@H]1CCNC1=O)NC(=O)[C@@H](CC(=O)[C@@H](NC(=O)c1cc(C)on1)C(C)C)Cc1ccc(F)cc1 | Replicase polyprotein 1ab, main protease (rep, Severe acute respiratory syndrome coronavirus 2, UniProt P0DTD1) | inhibitor | SARS-CoV-2 | below 40 µM, 48 h | – | reporter signal | no effect
[3H]diisopropyl fluorophosphate | Albumin (Alb, Rattus norvegicus, UniProt P02770) | – | – | 19 µM, 1 h | reference: commercial over native rat albumin | binding stoichiometry increase | ~5 fold
C[C@@H]1NC(=O)[C@H](CO)NC(=O)[C@H](CO)NC(=O)[C@@H]2CSSC[C@@H](C(N)=O)NC(=O)[C@@H]3CSSC[C@H](N)C(=O)N[C@@H](CSSC[C@H](NC(=O)[C@H](Cc4c[nH]c5ccccc45)NC1=O)C(=O)N[C@@H](CCCNC(=N)N)C(=O)N[C@@H](CC(=O)O)C(=O)N[C@@H](Cc1c[nH]cn1)C(=O)N[C@@H](CO)C(=O)N[C@@H](CCCNC(=N)N)C(=O)N3)C(=O)N[C@@H](CC(N)=O)C(=O)N2 | Scn2a (Rattus norvegicus, UniProt P04775) | channel-peptide complex formation | – | 1 µM | – | kobs | 0.17 ± 0.006 min⁻¹
CNC(=O)Oc1cccc2c1OC(C)(C)C2 | Ache (Mus musculus, UniProt P21836) | – | ES1-/- mice, plasma | subcutaneous, 1.0 mg/kg, 0.5 h, toxicant challenge | – | inhibition | 52.4 ± 4.1%
NC12CC3CC(CC(C3)C1)C2 | Influenza A virus | viral replication, plaque size reduction | MDCK, A/Swine/Indiana/29-0404/2010 (H1N2) | – | – | EC50 | 62.6 ± 5.4 µM
COc1c(C)c2c(c(O)c1C/C=C(\C)CCC(=O)O)C(=O)OC2 | guaB (Bacillus anthracis, UniProt A0A6L8P2U9) | inhibitor | – | with: IMP varied, 1.3 mM NAD+ | – | Kii | 4.83 ± 0.04 µM
CC(=O)c1cnc2c(=O)[nH]c(N)nc2n1 | Ricin, A chain (Ricinus communis, UniProt P02879) | differential scanning fluorimetry | – | 500 µM, pH 7.5, 2 µM protein | – | ΔTm | 1.3 °C

For quick reference, copied from above:
Molecule | tested on | assay | system | conditions | how to read | quantity | value
CCOC(=O)/C=C/[C@H](C[C@@H]1CCNC1=O)NC(=O)[C@@H](CC(=O)[C@@H](NC(=O)c1cc(C)on1)C(C)C)Cc1ccc(F)cc1 | Replicase polyprotein 1ab, main protease (rep, Severe acute respiratory syndrome coronavirus 2, UniProt P0DTD1) | inhibitor | SARS-CoV-2 | below 40 µM, 48 h | – | reporter signal | no effect
[3H]diisopropyl fluorophosphate | Albumin (Alb, Rattus norvegicus, UniProt P02770) | – | – | 19 µM, 1 h | reference: commercial over native rat albumin | binding stoichiometry increase | ~5 fold
